Assay results collected from several papers.
Lines come from different studies, so protocols differ. Numbers after ± are the reported error. Where no end group is shown, it is not given here.
SCN9A: Sodium channel protein type 9 subunit alpha (SCN9A, Homo sapiens, UniProt Q15858)
Chain of UniProt Q15858 (whole entry, looked up): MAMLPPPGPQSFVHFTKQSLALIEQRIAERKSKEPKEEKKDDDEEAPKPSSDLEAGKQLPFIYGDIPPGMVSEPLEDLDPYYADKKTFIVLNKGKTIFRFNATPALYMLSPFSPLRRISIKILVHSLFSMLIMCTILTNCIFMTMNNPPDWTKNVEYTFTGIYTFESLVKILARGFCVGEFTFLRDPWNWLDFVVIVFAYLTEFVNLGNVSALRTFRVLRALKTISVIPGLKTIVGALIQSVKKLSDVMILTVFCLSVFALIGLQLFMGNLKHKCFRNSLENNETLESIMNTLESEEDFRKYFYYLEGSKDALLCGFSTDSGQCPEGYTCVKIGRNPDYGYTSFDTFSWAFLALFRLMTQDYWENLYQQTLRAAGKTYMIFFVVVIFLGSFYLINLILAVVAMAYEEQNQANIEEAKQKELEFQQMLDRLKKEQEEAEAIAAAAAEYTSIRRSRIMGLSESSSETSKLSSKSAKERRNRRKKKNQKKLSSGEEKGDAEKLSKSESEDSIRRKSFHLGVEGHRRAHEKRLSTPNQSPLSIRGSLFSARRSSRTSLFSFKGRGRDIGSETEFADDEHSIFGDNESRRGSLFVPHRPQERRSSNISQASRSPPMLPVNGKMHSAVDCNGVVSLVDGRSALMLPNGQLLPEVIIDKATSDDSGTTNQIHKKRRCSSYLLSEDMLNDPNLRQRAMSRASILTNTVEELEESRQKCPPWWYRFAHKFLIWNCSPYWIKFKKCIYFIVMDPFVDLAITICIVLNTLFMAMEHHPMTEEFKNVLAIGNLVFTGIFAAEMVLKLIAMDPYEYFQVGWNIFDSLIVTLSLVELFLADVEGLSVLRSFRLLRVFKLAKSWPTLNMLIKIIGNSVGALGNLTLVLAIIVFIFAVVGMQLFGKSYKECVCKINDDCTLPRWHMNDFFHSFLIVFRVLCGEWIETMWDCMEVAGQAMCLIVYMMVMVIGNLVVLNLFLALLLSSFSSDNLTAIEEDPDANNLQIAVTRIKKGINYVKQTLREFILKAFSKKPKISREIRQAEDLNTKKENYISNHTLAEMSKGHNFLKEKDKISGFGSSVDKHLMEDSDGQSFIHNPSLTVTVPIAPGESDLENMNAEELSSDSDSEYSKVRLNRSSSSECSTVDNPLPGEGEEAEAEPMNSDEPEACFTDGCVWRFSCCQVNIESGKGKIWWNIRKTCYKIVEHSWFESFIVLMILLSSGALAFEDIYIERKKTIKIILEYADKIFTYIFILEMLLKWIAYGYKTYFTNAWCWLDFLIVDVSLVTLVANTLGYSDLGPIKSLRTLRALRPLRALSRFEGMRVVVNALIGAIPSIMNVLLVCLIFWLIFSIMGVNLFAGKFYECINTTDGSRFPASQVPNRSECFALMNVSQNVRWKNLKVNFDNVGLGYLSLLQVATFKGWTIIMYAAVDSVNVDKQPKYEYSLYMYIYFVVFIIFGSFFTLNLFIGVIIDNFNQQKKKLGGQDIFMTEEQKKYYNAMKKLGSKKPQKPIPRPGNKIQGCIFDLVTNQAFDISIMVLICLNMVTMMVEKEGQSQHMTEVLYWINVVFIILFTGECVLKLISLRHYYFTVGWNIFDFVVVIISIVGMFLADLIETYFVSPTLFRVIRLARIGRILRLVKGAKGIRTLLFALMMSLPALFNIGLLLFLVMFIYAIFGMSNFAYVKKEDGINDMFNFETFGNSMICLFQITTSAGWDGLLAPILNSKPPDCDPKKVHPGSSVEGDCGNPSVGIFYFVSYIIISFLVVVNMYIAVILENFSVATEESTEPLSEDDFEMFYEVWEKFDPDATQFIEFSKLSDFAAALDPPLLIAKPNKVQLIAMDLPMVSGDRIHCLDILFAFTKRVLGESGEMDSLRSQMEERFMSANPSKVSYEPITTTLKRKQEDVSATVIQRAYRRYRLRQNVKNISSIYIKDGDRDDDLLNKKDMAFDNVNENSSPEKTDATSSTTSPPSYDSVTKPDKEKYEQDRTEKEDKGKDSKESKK
HBA1 with beta chain: Hemoglobin subunit alpha, with beta chain (HBA1, Homo sapiens, UniProt P69905)
Chain of UniProt P69905 (whole entry, looked up): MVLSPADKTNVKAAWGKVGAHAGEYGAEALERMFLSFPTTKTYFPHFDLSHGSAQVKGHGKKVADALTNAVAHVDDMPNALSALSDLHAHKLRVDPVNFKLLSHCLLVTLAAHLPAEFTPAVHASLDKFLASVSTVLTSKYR
HSPA1A with Hdj2: Heat shock 70 kDa protein 1A, with Hdj2 (HSPA1A, Homo sapiens, UniProt P0DMV8)
Chain of UniProt P0DMV8 (whole entry, looked up): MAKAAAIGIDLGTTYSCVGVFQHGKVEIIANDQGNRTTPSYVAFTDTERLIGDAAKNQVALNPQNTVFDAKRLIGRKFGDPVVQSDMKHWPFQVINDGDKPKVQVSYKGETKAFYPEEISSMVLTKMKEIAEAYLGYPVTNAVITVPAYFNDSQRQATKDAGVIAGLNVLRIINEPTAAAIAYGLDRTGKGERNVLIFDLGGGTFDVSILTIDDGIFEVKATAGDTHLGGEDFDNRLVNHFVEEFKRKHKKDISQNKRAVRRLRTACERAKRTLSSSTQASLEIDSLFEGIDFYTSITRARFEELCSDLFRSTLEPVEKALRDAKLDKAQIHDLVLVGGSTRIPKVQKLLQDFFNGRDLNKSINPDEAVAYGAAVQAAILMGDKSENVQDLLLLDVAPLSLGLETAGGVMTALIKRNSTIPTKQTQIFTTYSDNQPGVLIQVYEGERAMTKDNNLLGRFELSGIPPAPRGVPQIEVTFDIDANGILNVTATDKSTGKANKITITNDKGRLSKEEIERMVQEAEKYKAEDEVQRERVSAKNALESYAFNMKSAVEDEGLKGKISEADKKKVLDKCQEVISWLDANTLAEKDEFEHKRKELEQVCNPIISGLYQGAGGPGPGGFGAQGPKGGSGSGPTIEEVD
MAL12: Alpha-glucosidase MAL12 (MAL12, Saccharomyces cerevisiae S288c, UniProt P53341)
Chain of UniProt P53341 (whole entry, looked up): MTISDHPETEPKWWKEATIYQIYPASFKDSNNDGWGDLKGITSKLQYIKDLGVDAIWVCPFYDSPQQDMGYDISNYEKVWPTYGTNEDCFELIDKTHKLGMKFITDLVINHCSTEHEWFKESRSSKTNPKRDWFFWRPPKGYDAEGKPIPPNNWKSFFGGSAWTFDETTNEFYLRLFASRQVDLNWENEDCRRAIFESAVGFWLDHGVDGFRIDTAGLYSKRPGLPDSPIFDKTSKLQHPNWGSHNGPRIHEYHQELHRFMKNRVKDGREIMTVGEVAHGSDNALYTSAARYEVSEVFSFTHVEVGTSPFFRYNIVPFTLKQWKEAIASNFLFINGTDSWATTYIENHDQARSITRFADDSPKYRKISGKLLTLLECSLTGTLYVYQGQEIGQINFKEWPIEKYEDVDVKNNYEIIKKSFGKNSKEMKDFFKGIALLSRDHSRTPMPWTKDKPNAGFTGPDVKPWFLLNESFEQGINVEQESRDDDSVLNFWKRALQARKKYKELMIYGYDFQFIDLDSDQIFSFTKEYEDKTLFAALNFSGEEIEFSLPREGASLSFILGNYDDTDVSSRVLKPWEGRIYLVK
WWOX WW1 domain: WW domain-containing oxidoreductase, WW1 domain (WWOX, Homo sapiens, UniProt Q9NZC7)
Chain of UniProt Q9NZC7 (whole entry, unmodified, looked up): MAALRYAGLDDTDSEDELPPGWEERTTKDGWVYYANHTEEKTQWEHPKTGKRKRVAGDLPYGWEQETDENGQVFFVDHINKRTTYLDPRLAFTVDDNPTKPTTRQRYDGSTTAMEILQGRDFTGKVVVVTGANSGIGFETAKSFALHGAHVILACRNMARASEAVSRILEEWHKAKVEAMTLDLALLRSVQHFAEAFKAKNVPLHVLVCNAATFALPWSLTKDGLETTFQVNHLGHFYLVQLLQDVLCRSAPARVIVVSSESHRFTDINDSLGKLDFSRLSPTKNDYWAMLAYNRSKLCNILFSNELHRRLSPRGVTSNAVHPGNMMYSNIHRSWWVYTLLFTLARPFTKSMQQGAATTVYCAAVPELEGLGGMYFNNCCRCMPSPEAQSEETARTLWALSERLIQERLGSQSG
B1: disulfide; chain GLIHQYCQGYWRHVPPSPREAPGAPRSPEPDQKKPRNRRHHPPDT (disulfide (positions not given here))
Chain of UniProt Q64663 (whole entry, unmodified, looked up): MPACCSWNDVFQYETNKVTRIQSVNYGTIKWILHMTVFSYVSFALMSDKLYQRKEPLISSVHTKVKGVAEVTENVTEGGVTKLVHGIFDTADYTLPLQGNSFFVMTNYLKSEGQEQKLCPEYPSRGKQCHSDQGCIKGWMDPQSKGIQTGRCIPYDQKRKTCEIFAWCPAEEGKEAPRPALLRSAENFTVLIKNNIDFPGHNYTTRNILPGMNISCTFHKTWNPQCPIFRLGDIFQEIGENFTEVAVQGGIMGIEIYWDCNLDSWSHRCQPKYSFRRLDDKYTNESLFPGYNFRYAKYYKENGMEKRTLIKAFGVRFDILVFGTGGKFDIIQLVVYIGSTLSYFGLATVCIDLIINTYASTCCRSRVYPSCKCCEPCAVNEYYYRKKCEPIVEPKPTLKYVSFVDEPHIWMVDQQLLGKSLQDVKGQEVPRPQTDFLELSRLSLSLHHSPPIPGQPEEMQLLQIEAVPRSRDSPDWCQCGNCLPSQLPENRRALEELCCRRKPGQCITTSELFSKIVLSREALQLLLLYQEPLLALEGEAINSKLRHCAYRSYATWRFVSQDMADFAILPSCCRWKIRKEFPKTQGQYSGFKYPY
Chain of UniProt Q00194 (whole entry, looked up): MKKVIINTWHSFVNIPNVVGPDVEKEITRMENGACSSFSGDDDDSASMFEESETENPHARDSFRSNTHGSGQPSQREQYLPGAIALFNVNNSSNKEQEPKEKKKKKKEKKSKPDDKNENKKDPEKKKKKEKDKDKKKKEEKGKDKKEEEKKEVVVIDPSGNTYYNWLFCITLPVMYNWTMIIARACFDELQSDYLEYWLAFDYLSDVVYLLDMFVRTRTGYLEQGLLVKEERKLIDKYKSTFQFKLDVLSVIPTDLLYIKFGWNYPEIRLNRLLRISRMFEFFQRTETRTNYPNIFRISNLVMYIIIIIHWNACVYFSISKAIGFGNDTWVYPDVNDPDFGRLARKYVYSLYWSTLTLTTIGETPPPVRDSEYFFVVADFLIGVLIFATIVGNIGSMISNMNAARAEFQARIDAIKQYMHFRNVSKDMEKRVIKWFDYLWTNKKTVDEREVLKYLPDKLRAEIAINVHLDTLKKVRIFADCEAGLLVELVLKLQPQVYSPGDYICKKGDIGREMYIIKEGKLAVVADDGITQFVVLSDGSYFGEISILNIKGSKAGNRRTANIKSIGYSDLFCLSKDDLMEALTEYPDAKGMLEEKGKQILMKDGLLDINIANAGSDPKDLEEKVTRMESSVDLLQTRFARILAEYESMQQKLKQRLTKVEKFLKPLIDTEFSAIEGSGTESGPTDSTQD

LFPVIYTQM  MFI increase (H-2 class I histocompatibility antigen, K-B alpha chain, 26 (H2-K1, Mus musculus, UniProt P01901); H2-K binding, flow cytometry; peptide, RMA-S; 10 µg per 100 µL, 3 h): 128%
CCN(CCO)C(C)C(=O)Nc1c(C)csc1C(=O)OC (centres unmarked)  capacity factor k′ (SCN9A; cell membrane chromatography; higher = stronger binding): 0
BzATP  deactivation time constant (P2X purinoceptor 7 (P2rx7, Rattus norvegicus, UniProt Q64663, I214A); ion current, agonist, two-electrode voltage clamp; Xenopus laevis oocytes; 10 µM, I214A mutant): 21 ± 3.5 s
CQQEPDDLKQKACES  patients with IgE binding (human IgE; peptide microarray; peptide, walnut-allergic patient sera; concentration not given, 16 h, 4 °C): 8%
COC(=O)c1scc(C)c1NC(=O)C(C)N1CCOCC1C (centres unmarked)  capacity factor k′ (SCN9A; cell membrane chromatography; higher = stronger binding): 12
CC(C)C[C@H](NC(=O)[C@@H](NC(=O)[C@@H](N)[C@@H](C)O)C(C)C)C(=O)N1CCC[C@H]1C(=O)N1CCC[C@H]1C(=O)N1CCC[C@H]1C(=O)N1CCC[C@H]1C(=O)N[C@@H](Cc1ccc(O)cc1)C(=O)N[C@@H](CCCNC(=N)N)C(=O)N[C@@H](Cc1c[nH]cn1)C(=O)N[C@@H](CCCNC(=N)N)C(=O)N[C@@H](CC(N)=O)C(=O)O  TΔS (WW domain-containing oxidoreductase, WW2 domain Y85W (WWOX, Homo sapiens, UniProt Q9NZC7, Y85W); binding, ITC; pH 7.0, 25 °C): 1.68 ± 0.37 kcal/mol
CCCCCCCCC(=O)N[C@H]1CN(C)C1=O  IC50 (N-acylethanolamine-hydrolyzing acid amidase (NAAA, Homo sapiens, UniProt Q02083); enzyme activity, inhibitor, fluorogenic PAMCA hydrolysis; pH 4.5, added: 5 µM PAMCA): inactive
COc1cc2c(cc1OC)-c1c/c(=N\c3c(C)cc(C)cc3C)n(C)c(=O)n1CC2  IC50 (Dual specificity calcium/calmodulin-dependent 3',5'-cyclic nucleotide phosphodiesterase 1B (Homo sapiens, UniProt Q01064); cAMP hydrolysis, inhibitor; up to 50 µM): inactive
B1  sedimentation coefficient, monomer peak (Neuropilin-2 (NRP2, Homo sapiens, UniProt O60462); sedimentation velocity AUC; 2.5-fold molar excess, pH 7.5, 4 °C, 8 µM b1b2 domain): 3.04 S
CN(C)C(=O)CCSC(SCCC(=O)O)c1cccc(/C=C/c2ccc3ccc(Cl)cc3n2)c1 (centres unmarked)  naringenin glucuronide excretion into lumen (ATP-binding cassette sub-family C member 2 (Rattus norvegicus, UniProt Q63120); inhibitor, intestinal perfusion; rat; 50 µM, added: naringenin 10 µM): no effect
COc1cc(/C=C/C(=O)CC(=O)/C=C/c2ccc(O)c(OC)c2)ccc1O  emission maximum (Protein kinase C delta type, C1B domain (Prkcd, Mus musculus, UniProt P28867); buffer; 5×1 µM, 1 h, 25 °C, protein excess): 559 nm
O=c1c(O)c(-c2ccc(O)c(O)c2)oc2cc(O)ccc12  V1/2 shift (Kcnh1 (Mus musculus, UniProt Q60603); inside-out patch clamp; Xenopus oocytes; 10 µM): -9.6 ± 1.9 mV
Nc1nc2c(ncn2[C@@H]2O[C@@H]3COP(=O)(O)O[C@H]3[C@H]2O)c(=O)[nH]1  Imax relative to cGMP (CNGA1/CNGB1 (Bos taurus, UniProt Q00194+Q14028); ion current, agonist, inside-out patch clamp; Xenopus oocytes; rod heteromeric channel; baseline: maximum cGMP current at start): 0.75
CC(=O)N[C@H]1[C@H]([C@H](O)[C@H](O)CO)OC(C(=O)O)=C[C@@H]1O  IC50 ratio (Sialidase A (nanA, Streptococcus pneumoniae, UniProt P62575); neuraminidase activity, fluorescence; baseline: cpd over oseltamivir): ~10 fold
COC(=O)c1scc(C)c1NC(=O)C(C)N1CCNCC1 (centres unmarked)  capacity factor k′ (SCN9A; cell membrane chromatography; higher = stronger binding): 59.2
O=Cc1c(O)cccc1OCc1cccc(CO)n1  kon (HBA1 with beta chain; binding, cation-exchange HPLC; 37 °C): 16.9 M⁻¹ s⁻¹
CQLGPYELWELSH  binding (bevacizumab; QCM frequency change, QCM; peptide; concentration not given, added: bevacizumab 1 µg/µL): increased
CC(C)C[C@H](NP(=O)(O)O[C@@H]1O[C@@H](C)[C@H](O)[C@@H](O)[C@H]1O)C(=O)N[C@@H](Cc1c[nH]c2ccccc12)C(=O)O  NEP2 activity (Membrane metallo-endopeptidase-like 1, extracellular domain (Homo sapiens, UniProt Q495T6); inhibitor, item: proBNP immunoreactivity; 50 µM, 2 and 6 h, added: proBNP 1.45 µM): inhibited
O=Cc1ccc(COc2ccccc2[N+](=O)[O-])o1  peak modification (HBA1 with beta chain; item: haemoglobin A adduct; human normal whole blood; 2000 µM, 24 h, hematocrit 30%): 24.7%
CC1=C(C(=O)OCc2ccccc2)C(c2ccc(-c3ccccc3C)cc2)NC(=S)N1Cc1ccc(-c2nnn[nH]2)cc1 (centres unmarked)  fold change in activity (HSPA1A with Hdj2; ATPase activity, inhibitor; 100 µM, Hsp40-stimulated activity, added: Hdj2 Hsp70:Hsp40 1:0.5; baseline: DMSO, negative means inhibition): -3.7 fold
COc1cc(-c2cnc3c(N4CCOCC4)snc3c2)cc(OC)c1OC  number of kinases bound (panel of 456 kinases; DiscoverX scan; 10 µM, below 10% of control): 7
COc1ccc2c(=O)c(OC)c(-c3ccccc3)oc2c1  inhibition (MAL12; enzyme activity, inhibitor, absorbance; 25 µM): 11.5%
CC(C)C[C@H](NC(=O)[C@@H](NC(=O)[C@@H](N)[C@@H](C)O)C(C)C)C(=O)N[C@@H](C)C(=O)N1CCC[C@H]1C(=O)N1CCC[C@H]1C(=O)N1CCC[C@H]1C(=O)N[C@@H](Cc1ccc(O)cc1)C(=O)N[C@@H](CCCNC(=N)N)C(=O)N[C@@H](Cc1c[nH]cn1)C(=O)N[C@@H](CCCNC(=N)N)C(=O)N[C@@H](CC(N)=O)C(=O)O  entropy term TΔS (WWOX WW1 domain; binding to WW1 domain, isothermal titration calorimetry; pH 7.0, 25 °C): 1.86 ± 0.52 kcal/mol
CC[C@]1(O)C[C@H]2CN(CCc3c([nH]c4ccccc34)[C@@](C(=O)OC)(c3cc4c(cc3OC)N(C=O)[C@H]3[C@@](O)(C(=O)OC)[C@H](OC(C)=O)[C@]5(CC)C=CCN6CC[C@]43[C@@H]65)C2)C1  inhibition (Organic cation/carnitine transporter 2 (SLC22A5, Homo sapiens, UniProt O76082); transporter uptake, inhibitor; 50 µM): 69.4%
COc1c(O)cc(O)c2c(=O)cc(-c3ccc(O)cc3)oc12  inhibition (MAL12; enzyme activity, inhibitor; 100 µM): > 99%
[Ca+2]  time to effect on deactivation (P2X purinoceptor 7 (P2rx7, Rattus norvegicus, UniProt Q64663); ion current, whole-cell patch clamp; HEK293, transfected; 2 mM): 0.5 s
VLASVSATHAKSSPY  patients with IgE binding (human IgE; peptide microarray; peptide, peanut-allergic patient sera; concentration not given, 16 h, 4 °C): 58%
CC/C=C/[C@H](CC)C/C(=C/[C@@]1(CC)C[C@H](CC)[C@H](CC(=O)O)OO1)CC  remaining binding (Endothelin-1 receptor (EDNRA, Homo sapiens, UniProt P25101); ligand displacement, radioligand; 100 µg/mL, 30 min): 56%
NC(=O)NCc1ccc(CNC(=O)[C@@H](CCCN=C(N)N)NC(=O)C(c2ccccc2)c2ccccc2)cc1  minimal effect (Neuropeptide Y receptor type 1 (Mus musculus, UniProt Q04573); antagonist; mouse, dorsal horn sections; 2 µM, added: [Leu31,Pro34]NPY; baseline: agonist alone): 2.9 ± 3.3%
COc1ccc(-c2cc(C(N)=O)nc3cc(CN4C(=O)CCC4=O)ccc23)c(F)c1  binding reduction (Metabotropic glutamate receptor 2 (Grm2, Rattus norvegicus, UniProt P31421); in vitro autoradiography; rat brain sections; concentration not given, radiolabelled compound, added: blocker 1 µM; baseline: baseline): 50 to 60%
O=c1cc(-c2ccccc2)oc2cc(O)ccc12  inhibition (MAL12; enzyme activity, inhibitor; 25 µM, added: p-nitrophenyl-α-D-glucopyranoside): < 1%
O=C(O)c1ccccc1Nc1cccc(C(F)(F)F)c1  inhibition (Transient receptor potential cation channel subfamily V member 3 (Trpv3, Mus musculus, UniProt Q8K424); ion current, two-electrode voltage clamp; Xenopus oocytes; 100 µM, +100 mV, added: 2-APB 100 µM): 57%
CC(=O)N[C@@H]1[C@@H](O)[C@H](O[C@@H]2O[C@H](CO)[C@@H](O[C@@H]3O[C@H](CO[C@H]4O[C@H](CO[C@H]5O[C@H](CO)[C@@H](O)[C@H](O)[C@@H]5O)[C@@H](O)[C@H](O[C@H]5O[C@H](CO)[C@@H](O)[C@H](O)[C@@H]5O[C@H]5O[C@H](CO)[C@@H](O)[C@H](O)[C@@H]5O)[C@@H]4O)[C@@H](O)[C@H](O[C@H]4O[C@H](CO)[C@@H](O)[C@H](O)[C@@H]4O[C@H]4O[C@H](CO)[C@@H](O)[C@H](O)[C@@H]4O)[C@@H]3O)[C@H](O)[C@H]2NC(C)=O)[C@@H](CO)O[C@H]1NC(=O)C[C@H](N)C(=O)O  fluorescence (NT1 (Nicotiana tabacum, UniProt Q94EW1); glycan binding, glycan array; added: Alexa 488-labelled lectin 150 µg/mL): 30900 RFU
CC[C@H](C)[C@H](NC(=O)[C@@H]1CCCN1C(=O)[C@@H]1CCCN1C(=O)[C@@H]1CCCN1C(=O)[C@@H](NC(=O)[C@H](CC(N)=O)NC(=O)[C@@H](N)Cc1ccccc1)[C@@H](C)CC)C(=O)N[C@@H](Cc1ccc(O)cc1)C(=O)N[C@H](C(=O)N[C@@H](CO)C(=O)N[C@@H](CCCNC(=N)N)C(=O)N[C@@H](C)C(=O)O)[C@@H](C)O  ΔH (WWOX WW1 domain; binding, ITC; pH 7.0, 25 °C): -6.88 ± 0.48 kcal/mol
C=CC(C)=CCC=C(C)C  remaining 1-NPN fluorescence (chemosensory protein 3 (Chilo suppressalis, UniProt V9PY40); binding, competitive ligand, fluorescence competitive binding; highest concentration tested, pH 7.4, protein 2 µM, added: 1-NPN 2 µM; baseline: no ligand): > 100%
CC1=C(C(=O)OCc2ccccc2)C(c2ccc(-c3ccccc3)cc2)N(Cc2ccc(-c3nnn[nH]3)cc2)C(=O)N1 (centres unmarked)  fold change in activity (HSPA1A with Hdj2; ATPase activity, inhibitor; 100 µM, Hsp40-stimulated activity, added: Hdj2 Hsp70:Hsp40 1:0.5; baseline: DMSO, negative means inhibition): -5 fold
COc1cc2oc(-c3ccccc3)cc(=O)c2c(OC)c1O  inhibition (MAL12; enzyme activity, inhibitor, absorbance; 100 µM): 69.6%
CC(C)=CC[C@@H](O)C1=CC(=O)c2c(O)ccc(O)c2C1=O  reduction in bound oligomers (Alpha-synuclein, oligomers (SNCA, Homo sapiens, UniProt P37840); oligomer-vesicle binding, FIDA; 5 µM, added: 150 nM oligomers, 50 µM DOPG liposomes; baseline: untreated): 15 to 20%
CC(C)C[C@H](NC(=O)[C@@H](NC(=O)[C@@H](N)[C@@H](C)O)C(C)C)C(=O)N1CCC[C@H]1C(=O)N1CCC[C@H]1C(=O)N1CCC[C@H]1C(=O)N1CCC[C@H]1C(=O)N[C@@H](Cc1ccc(O)cc1)C(=O)N[C@@H](CCCNC(=N)N)C(=O)N[C@@H](C)C(=O)N[C@@H](CCCNC(=N)N)C(=O)N[C@@H](CC(N)=O)C(=O)O  binding free energy ΔG (WWOX WW1 domain; binding to WW1 domain, isothermal titration calorimetry; pH 7.0, 25 °C): -5.2 ± 0.07 kcal/mol
CC(C)(C)OC(=O)OCc1ccc(C=O)o1  P50 change (Hemoglobin subunit alpha, with sickle beta chain (HBA1, Homo sapiens, UniProt P69905); oxygen affinity; sickle red cell lysate; 2 mM; baseline: untreated): 44.8 ± 12.9%
COc1ccc(NC(=O)N2CCN(c3ccnc(Nc4ccc(Cl)cc4)n3)[C@@H](C)C2)cc1  activity ratio (MAL12; enzyme activity, inhibitor; Saccharomyces cerevisiae; added: p-nitrophenyl glucoside substrate; baseline: S over R enantiomer): ~3 fold

For quick reference, copied from above:
CQQEPDDLKQKACES  patients with IgE binding (human IgE; peptide microarray; peptide, walnut-allergic patient sera; concentration not given, 16 h, 4 °C): 8%
LFPVIYTQM  MFI increase (H-2 class I histocompatibility antigen, K-B alpha chain, 26 (H2-K1, Mus musculus, UniProt P01901); H2-K binding, flow cytometry; peptide, RMA-S; 10 µg per 100 µL, 3 h): 128%
B1  sedimentation coefficient, monomer peak (Neuropilin-2 (NRP2, Homo sapiens, UniProt O60462); sedimentation velocity AUC; 2.5-fold molar excess, pH 7.5, 4 °C, 8 µM b1b2 domain): 3.04 S
COc1cc(/C=C/C(=O)CC(=O)/C=C/c2ccc(O)c(OC)c2)ccc1O  emission maximum (Protein kinase C delta type, C1B domain (Prkcd, Mus musculus, UniProt P28867); buffer; 5×1 µM, 1 h, 25 °C, protein excess): 559 nm
COc1cc2c(cc1OC)-c1c/c(=N\c3c(C)cc(C)cc3C)n(C)c(=O)n1CC2  IC50 (Dual specificity calcium/calmodulin-dependent 3',5'-cyclic nucleotide phosphodiesterase 1B (Homo sapiens, UniProt Q01064); cAMP hydrolysis, inhibitor; up to 50 µM): inactive
